{"data": "Assay results of several laboratories", "HTR1E": "5-hydroxytryptamine receptor 1E (HTR1E, Homo sapiens, UniProt P28566)", "Luciferin 4-monooxygenase": "Luciferin 4-monooxygenase (Photinus pyralis, UniProt P08659)", "note": "Protocols differ between the studies behind these lines. “And” joins repeats or separate records; there may be more than shown. ± marks the error that the study gave."}
{"Compound": "COc1c(O)cc2c(c1O)C(=O)c1c(cc(C)c(O)c1OC)C2=O", "target or system": "HK-2 co-cultured with HepaRG", "test": "MTT", "conditions": "66.67 µM, 24 h", "how to read": "relative to: untreated control", "quantity": "viability", "value": "86.8 ± 13.2%"}
{"Compound": "COc1cccc(OC[C@@H]2CN(CC(=O)N3CCc4ccccc43)CCO2)c1", "target or system": "D(1A) dopamine receptor (DRD1, Homo sapiens, UniProt P21728)", "test": "radioligand binding", "conditions": "concentration not given, added: [3H]SCH23390", "quantity": "inhibition", "value": "26.3%"}
{"Compound": "CCN(O)N=Nc1ccc(S(=O)(=O)Nc2cc(C)on2)cc1", "target or system": "α-glucosidase, rat intestine", "test": "enzyme activity", "conditions": "120 µg/mL, added: 4-nitrophenyl α-D-glucopyranoside", "quantity": "inhibition", "value": "42.5 ± 0.04%"}
{"Compound": "O=C(Nc1cccc2c(=O)cc(-c3nnn[nH]3)oc12)c1ccc(OCCCCc2ccccc2)cc1", "target or system": "Volume-regulated anion channel subunit LRRC8C, part LRRC8A IL1 chimera (LRRC8C, Homo sapiens, UniProt Q8TDW0, E6A)", "test": "ion current, inhibitor, whole-cell patch clamp", "test system": "HCT LRRC8-/- cells", "conditions": "0.3 µM, -100 mV", "quantity": "inhibition", "value": "13.7% and 18.5% and 30.8% and 25% and 31.9%"}
{"Compound": "O=C(NO)c1ccc(CN2CCCCc3ccccc32)c(F)c1", "target or system": "Delta-type opioid receptor (OPRD1, Homo sapiens, UniProt P41143)", "test": "radioligand binding, PDSP radioligand binding", "conditions": "10 µM", "quantity": "inhibition", "value": "16.2%"}
{"Compound": "CCc1oc2ccccc2c1C(=O)c1cc(Br)c(O)c(Br)c1", "target or system": "Solute carrier family 22 member 12 (SLC22A12, Homo sapiens, UniProt Q96S37, S35A)", "test": "urate uptake", "test system": "HEK293T", "conditions": "0.5 µM, 10 min, 37 °C, added: 200 µM [14C]urate", "quantity": "inhibition", "value": "55.4% and 67.7% and 59% and 63.1%"}
{"Compound": "Cc1cc(NS(=O)(=O)c2ccc(N=NN(O)c3ccccc3)cc2)no1", "target or system": "α-glucosidase, rat intestine", "test": "enzyme activity", "conditions": "180 µg/mL, added: 4-nitrophenyl α-D-glucopyranoside", "quantity": "inhibition", "value": "42.5 ± 0.59%"}
{"Compound": "CC[C@@H]1[C@H](F)C(=O)N[C@@H]1COc1nccc2cc(C(N)=O)c(OC)cc12", "target or system": "Mixed lineage kinase domain-like protein (MLKL, Homo sapiens, UniProt Q8NB16)", "test": "ATP-site probe binding, ActivX profiling", "test system": "THP-1 cell lysate", "conditions": "0.2 mM, Lys1 site", "quantity": "inhibition", "value": "16.3%"}
{"Compound": "Cc1ccc(C(=O)Nc2ccc3ccccc3c2)o1", "target or system": "Sodium channel protein type 2 subunit alpha (Scn2a, Rattus norvegicus, UniProt P04775)", "test": "ion current, whole-cell patch-clamp", "conditions": "10 µM, rNav1.2", "quantity": "inhibition", "value": "4.31%"}
{"Compound": "CCN(O)N=Nc1ccc(S(=O)(=O)Nc2onc(C)c2C)cc1", "target or system": "α-glucosidase, rat intestine", "test": "enzyme activity", "conditions": "240 µg/mL, added: 4-nitrophenyl α-D-glucopyranoside", "quantity": "inhibition", "value": "47.5 ± 0.04%"}
{"Compound": "COc1cc(O)c2c(c1)C(=O)c1cc(C)cc(O)c1C2=O", "target or system": "HK-2 co-cultured with HepaRG", "test": "MTT", "conditions": "16.67 µM, 48 h", "how to read": "relative to: untreated control", "quantity": "viability", "value": "105 ± 9.11%"}
{"Compound": "CC(C)C[C@H](NC(=O)C[C@H](O)[C@H](CC(C)C)NC(=O)[C@H](Cc1c[nH]cn1)NC(=O)CNC(=O)[C@@H](NC(=O)[C@H](C)NC(=O)[C@H](Cc1c[nH]c2ccccc12)NC(=O)[C@H](CCC(N)=O)NC(=O)[C@@H](Cc1ccccc1)NC(=O)COCCOCCNC(=O)CN1CCN(CC(=O)O)CCN(CC(=O)O)CCN(CC(=O)O)CC1)C(C)C)C(N)=O [lutetium-177 labelled]", "test system": "female BALB/c nu/nu mice, spleen", "conditions": "intravenous, 50 pmol, 1 h", "quantity": "tissue uptake", "value": "0.19 ± 0.02 %ID/g"}
{"Compound": "CCCN(O)N=Nc1ccc(S(=O)(=O)Nc2nccs2)cc1", "target or system": "α-glucosidase, rat intestine", "test": "enzyme activity", "conditions": "300 µg/mL, added: 4-nitrophenyl α-D-glucopyranoside", "quantity": "inhibition", "value": "57.5 ± 0.04%"}
{"Compound": "[2H]c1cc(C)c(NC(=O)c2cnc(Nc3cc(N4CCCCC4)nc(C)n3)s2)c(Cl)c1", "target or system": "Tyrosine-protein kinase Blk (BLK, Homo sapiens, UniProt P51451)", "conditions": "0.01 µM", "quantity": "inhibition", "value": "> 90%"}
{"Compound": "OCCCN1CC[C@@H]2C[C@H]1c1cc(-c3ccc(C(F)(F)F)cc3)ccc12", "target or system": "HTR1E", "test": "radioligand binding, PDSP competition binding", "conditions": "10 µM", "quantity": "inhibition", "value": "< 50%"}
{"Compound": "O=C(Nc1nc2cccc(-c3ccc(CN4CCS(=O)(=O)CC4)cc3)n2n1)C1CC1", "test system": "rheumatoid arthritis patients", "conditions": "oral, 100 mg twice daily, 4 weeks, regardless of relatedness", "quantity": "patients with musculoskeletal disorders", "value": "8.3%"}
{"Compound": "Clc1cncc(OC[C@H]2CN(CCN3CCc4ccccc43)CCO2)c1", "target or system": "HTR1E", "test": "radioligand binding", "conditions": "concentration not given, added: [3H]5-HT", "quantity": "inhibition", "value": "-12.3%"}
{"Compound": "CC[C@H]1[C@@H](O)[C@@H]2[C@H](CC[C@]3(C)[C@@H]([C@H](C)CCNC(=O)NS(=O)(=O)c4ccc(C(C)(C)C)cc4)CC[C@@H]23)[C@@]2(C)CC[C@@H](O)C[C@@H]12", "target or system": "ATP-dependent translocase ABCB1 (ABCB1, Homo sapiens, UniProt P08183)", "test": "substrate", "test system": "human, plasma", "conditions": "dose not given, alone", "quantity": "CL/F geometric mean", "value": "14.2 L/h"}
{"Compound": "CC(CN1c2ccccc2Sc2ccccc21)N(C)C (centres unmarked)", "target or system": "Palmitoyl-protein thioesterase 1 (Homo sapiens, UniProt P50897)", "test": "Spectrum Collection screen", "conditions": "concentration not given, added: substrate 20 µM", "quantity": "inhibition", "value": "63.7%"}
{"Compound": "C=C1CN(S(=O)(=O)c2ccc(C)cc2)CCCN(Cc2ccccc2)CCCN(S(=O)(=O)c2ccc(C)cc2)C1", "target or system": "HEK293 with CD4 signal peptide-FLuc", "conditions": "20 µM, 4 h, no cycloheximide, unit not given", "how to read": "relative to: mock", "quantity": "FLuc activity", "value": 1.82}
{"Compound": "COCCNCc1ccc(OCC(O)CN2CCCCCC2)c(OC)c1 (centres unmarked)", "target or system": "Luciferin 4-monooxygenase", "test": "luciferase luminescence, inhibitor", "test system": "cell-free", "conditions": "50 µM, counter-screen", "quantity": "inhibition", "value": "1.09%"}
{"Compound": "O=C(COP(=O)(O)O)[C@@H](O)[C@H](O)[C@H](O)COP(=O)(O)O", "target or system": "Poly [ADP-ribose] polymerase 1 (PARP1, Homo sapiens, UniProt P09874)", "test": "thermal proteome profiling", "test system": "HepG2 cell lysate", "conditions": "concentration not given, 57 over 37 °C", "how to read": "relative to: compound over control", "quantity": "thermal stability ratio", "value": "0.6 and 0.556 and 0.444"}
{"Compound": "Cn1cncc1[C@@](N)(c1ccc(Cl)cc1)c1ccc2c(c1)c(-c1cccc(Cl)c1)cc(=O)n2C", "target or system": "Protein farnesyltransferase (Homo sapiens, UniProt P49354+P49356)", "test": "enzyme activity, inhibitor, scintillation proximity", "test system": "leukaemia patients, leukaemic blasts", "conditions": "200 mg/m^2, 10 days, range", "how to read": "relative to: pretreatment", "quantity": "inhibition", "value": "38 to 82%"}
{"Compound": "CCCN(O)N=Nc1ccc(S(=O)(=O)Nc2cc(C)on2)cc1", "target or system": "α-glucosidase, rat intestine", "test": "enzyme activity", "conditions": "120 µg/mL, added: 4-nitrophenyl α-D-glucopyranoside", "quantity": "inhibition", "value": "32.5 ± 0.12%"}
{"Compound": "O=c1oc(-c2ccco2)nc2ccccc12", "target or system": "Coagulation factor XI (F11, Homo sapiens, UniProt P03951)", "test": "chromogenic substrate hydrolysis", "conditions": "up to 50 µM", "quantity": "inhibition", "value": "no inhibition"}
{"Compound": "CSCC(=O)N1CCOC(Cc2cccc3ccccc23)C1 (centres unmarked)", "target or system": "Luciferin 4-monooxygenase", "test": "luciferase luminescence, inhibitor", "test system": "cell-free", "conditions": "50 µM, counter-screen", "quantity": "inhibition", "value": "58.9%"}
{"note": "Some of these lines once more:"}
{"Compound": "O=C(NO)c1ccc(CN2CCCCc3ccccc32)c(F)c1", "target or system": "Delta-type opioid receptor (OPRD1, Homo sapiens, UniProt P41143)", "test": "radioligand binding, PDSP radioligand binding", "conditions": "10 µM", "quantity": "inhibition", "value": "16.2%"}
{"Compound": "CCc1oc2ccccc2c1C(=O)c1cc(Br)c(O)c(Br)c1", "target or system": "Solute carrier family 22 member 12 (SLC22A12, Homo sapiens, UniProt Q96S37, S35A)", "test": "urate uptake", "test system": "HEK293T", "conditions": "0.5 µM, 10 min, 37 °C, added: 200 µM [14C]urate", "quantity": "inhibition", "value": "55.4% and 67.7% and 59% and 63.1%"}
